Results collected from several papers.
Numbered parts are unrelated; each lists some results of a single study. Positions count from the first letter of the parent shown.

Block 1
Target: ABI1, truncated, D143A, DHFR fusion (Arabidopsis thaliana)
Method: DHFR PCA, deep sequencing
Medium: yeast
Notes: methotrexate growth selection, single substitutions
Together with: (+)-ABA 4.8 µM
Relative to: wild-type fitted maximum
Direction: higher = stronger binding
Starting sequence: PYL1, truncated, DHFR fusion (Arabidopsis thaliana); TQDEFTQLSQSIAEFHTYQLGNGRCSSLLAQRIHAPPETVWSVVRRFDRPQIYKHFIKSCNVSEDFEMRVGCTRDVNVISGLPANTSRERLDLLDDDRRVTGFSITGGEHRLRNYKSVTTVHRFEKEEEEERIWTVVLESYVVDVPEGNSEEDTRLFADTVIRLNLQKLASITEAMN; partner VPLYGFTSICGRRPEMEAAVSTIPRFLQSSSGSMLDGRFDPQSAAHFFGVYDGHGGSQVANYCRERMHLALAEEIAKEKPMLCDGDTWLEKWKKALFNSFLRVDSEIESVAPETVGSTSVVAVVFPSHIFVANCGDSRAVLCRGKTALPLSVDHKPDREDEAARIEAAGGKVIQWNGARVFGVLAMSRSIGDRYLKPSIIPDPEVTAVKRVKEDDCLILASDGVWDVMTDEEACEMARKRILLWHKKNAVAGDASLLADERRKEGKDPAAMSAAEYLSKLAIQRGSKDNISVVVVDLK
| Variant | relative binding score |
| --- | --- |
| I162R | -9.45% |
| E152V | 50.3% |
| H55E | 65.7% |
| Y115I | 10% |
| V137F | 5.31% |
| V142I | 84.5% |
| C72W | 26.7% |
| F66S | 54.6% |
| W41L | 16.8% |
| T17W | 8.86% |
| K126I | 71.4% |
| N85K | 91.9% |
| A30M | 81.4% |
| S63T | 69.9% |
| Q31P | 1.27% |
| D159M | -1.16% |
| E130L | 60.3% |
| G148K | 16% |
| R46I | -15.6% |
| R113G | 28.6% |
| T86G | 62.1% |
| V40S | -2.57% |
| R98K | 82.7% |

Block 2
Target: FOSB, bZIP domain (human)
Method: DHFR protein complementation
Medium: yeast
Notes: single substitutions, most at no-binding floor
Relative to: wild-type JUN-FOS pair
Direction: higher = stronger binding
Starting sequence: JUN, bZIP domain (human); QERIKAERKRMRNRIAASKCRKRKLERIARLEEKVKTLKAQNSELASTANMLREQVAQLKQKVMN; partner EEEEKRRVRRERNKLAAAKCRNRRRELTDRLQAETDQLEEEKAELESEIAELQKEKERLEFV
| Variant | binding fitness [natural log] |
| --- | --- |
| A29N | -0.155 |
| E44V | -0.0927 |
| V35H | -0.464 |
| R30M | -0.0452 |
| K34R | 0.0707 |
| E32A | 0.175 |
| A46H | -0.128 |
| A40C | -0.249 |
| N42Y | -0.763 |
| V35E | -1.07 |
| N42R | -0.227 |
| K39H | -0.305 |
| A29G | -0.188 |
| L38A | -0.759 |
| E54R | -0.161 |
| T37E | 0.0272 |
| K34A | -0.212 |
| A57S | -0.249 |
| K39C | -0.649 |
| A57V | -0.0564 |
| Q41L | -0.219 |
| A40W | -0.337 |
| A49R | 0.134 |
| I28G | -0.283 |
| K36H | -0.111 |

Block 3
Target: RNA binding protein fox-1 homolog 2, RRM domain, GST-SBP tag (RBFOX2, Homo sapiens, UniProt O43251-10, residues 100-194)
Method: RNA Bind-n-Seq
Form: RNA
Medium: in vitro
Tested at: 365 nM
Notes: natural RNA segment, single round, ends assumed
Relative to: no-protein control
Direction: higher = stronger binding
Target sequence (chain): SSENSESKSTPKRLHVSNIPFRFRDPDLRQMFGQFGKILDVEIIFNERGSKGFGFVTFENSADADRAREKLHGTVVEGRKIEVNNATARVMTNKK
| Oligonucleotide | RBNS enrichment (R) |
| --- | --- |
| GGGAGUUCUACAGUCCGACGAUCUGUGCAUAUUUGAAUUUUUCAUGCAGUUUUUCUAGAGCAAUAAUCAGUGGUGCUUUUGUACCUAGGUUUUAUGUGAUUUUAAUGAAACAUGGAUAGUUGUGGCCACCUGCUGGAAUUCUCGGGUGCCAA | 0.289 |
| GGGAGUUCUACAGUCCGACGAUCUGUGGGAAAGCAGGGUGGACGCUGAGGAGUGAAAGAACCCUGCACCCAGAGGGCCUGCCUGGUGCCAAGGUAUCCCAGCCUGGACAGGCAUGGACCUGUCUCCAGAGAGAUGGAAUUCUCGGGUGCCAA | 0.333 |
| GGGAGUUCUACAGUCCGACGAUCGGGAAGCAACUCCGUGUGCCUGGGGUUCCCGAGGGAGCUGCUGGCUGACCUGGGCCCACAGAGCCUGGCUUUGGUCCCCAGCAUUGCAGUAUGGUGUGGUGUUUGUAGGCUGGAAUUCUCGGGUGCCAA | 1.21 |
| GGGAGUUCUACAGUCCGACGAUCCUUUAUUUUUGUAAGUAUCACCUGCCACCAUGUUUUGUAAUUUGAGGUCUUGAUUUCACCAUUGUCGGUGAAGAAAAUUUUCAAUAAAUAUGUAUUACCCGUCUGAAGCUUGGAAUUCUCGGGUGCCAA | 0.945 |
| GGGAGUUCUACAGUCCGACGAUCGGGCAACAUGGUGAAACCCUGUUUCUAUAAAAAAUAAUCUGGGCUUUGUAGCAUAUGCCUGUGGUCCCAGCUACUGAGGAGGCUGAGGUGGGAGGAUUGCUUGAGCCCAGUGGAAUUCUCGGGUGCCAA | 0.954 |
| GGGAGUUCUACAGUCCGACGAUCGUGUGCGCAGAACUGUCACCUCUAGGCUUCCGGGUGUUGCCUCCGAUGCACCUGCCUCCCUUCAUCCUCUCUCUGGGGCUGCGUUGCCUCGGCAAUGCCCCUUUUGGAGCUGGAAUUCUCGGGUGCCAA | 0.221 |
| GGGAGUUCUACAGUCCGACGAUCAAGCACCCUGCAGCCCUGCAGACACCCCCCCCCUCCAAGAGUGGGAGGCAGGGACCACAGAACUGUCCAGCCAACACGUCUGAACUGGAACUGUUCCACUUGAACCCGGGUGGAAUUCUCGGGUGCCAA | 0.187 |
| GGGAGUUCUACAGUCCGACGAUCGAGGCAAGAGAUAAGGGCAGGAUAUAGCACAUGAUGGCUUCCAGCAGAACUGAGUCUAUAGCCCAGGUCUGCUGGCUUCCAGCACAUGUUGUACACUAAGAUUUCAUGCAUGGAAUUCUCGGGUGCCAA | 0.763 |
| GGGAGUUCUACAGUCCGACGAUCUGAAUGGCGCCUCCCCACCUCAUUUCUGGAGUUGCAAUGGUCUCAACUCCCAUCUGAGGUGGGUACCACCCCUUCCUCAGUACCCACCGUGGAUACUGCAUGUGAACUAUUGGAAUUCUCGGGUGCCAA | 1.26 |
| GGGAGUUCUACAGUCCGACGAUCAGAGUGCCCUUCAGGCUGUCAGGUCACGAGCUCCGAGCUGCCCUUAGUCCUUGUCAGCCUCACAGAGGUCUGCGCCCGACACUUCUGCCCUUUGAGACAAAAGAAACAGGUGGAAUUCUCGGGUGCCAA | 0.162 |
| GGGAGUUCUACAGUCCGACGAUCCUAGUGAAUCGCCACUGUACUGUAAUAAUGGUUAUUUACCUCUGUGCUGUUUUAAUUACCUAACGUCUGUGUAACUGCUGAUUUGAGUAGUGAUUAGCAUUUAGAUAAUGUGGAAUUCUCGGGUGCCAA | 0.317 |
| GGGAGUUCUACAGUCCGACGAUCCUGUCUAUCCUAAAAGUAGAUUAGAAAGCCUUUUUUAUUUAUCAUGUUGAAUUUUAUUGACUUAAUUGGUCUGUAGAUAUGAAAGCAUCUUCUAAGGAGUUUUAGAUUUAUGGAAUUCUCGGGUGCCAA | 0.583 |

Block 4
Target: Ras GTPase-activating protein-binding protein 1, RRM domain (G3BP1, Homo sapiens, UniProt Q13283)
Sequence of UniProt Q13283 (whole entry, looked up): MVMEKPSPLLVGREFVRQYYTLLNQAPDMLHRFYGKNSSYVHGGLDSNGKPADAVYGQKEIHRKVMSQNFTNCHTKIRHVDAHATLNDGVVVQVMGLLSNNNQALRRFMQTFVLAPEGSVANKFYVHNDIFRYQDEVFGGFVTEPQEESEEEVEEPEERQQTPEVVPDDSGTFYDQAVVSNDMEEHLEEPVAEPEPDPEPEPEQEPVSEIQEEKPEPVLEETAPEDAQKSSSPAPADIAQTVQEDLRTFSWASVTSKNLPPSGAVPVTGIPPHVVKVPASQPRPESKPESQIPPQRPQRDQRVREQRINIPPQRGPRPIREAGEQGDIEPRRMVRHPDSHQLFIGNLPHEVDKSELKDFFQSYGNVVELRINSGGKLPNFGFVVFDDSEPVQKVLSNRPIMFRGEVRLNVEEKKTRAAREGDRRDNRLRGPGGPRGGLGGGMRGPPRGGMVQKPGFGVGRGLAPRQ
Method: RNA Bind-n-Seq
Form: RNA
Medium: in vitro
Tested at: 1 µM
Notes: whole 134-nt RNA, ends assumed
Together with: 150 mM KCl
Relative to: input library
Direction: higher = stronger binding
| Oligonucleotide | log2 enrichment |
| --- | --- |
| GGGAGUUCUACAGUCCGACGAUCGUCCUGUGCUACACAUCGUAUGUACCGAAUCGGGGUGGGGUUUGGGGUUUUUUUGGGGAAAGUAUUAUGUUACGCCGUUCGGAUCUGCACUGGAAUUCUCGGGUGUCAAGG | 1.07 |
| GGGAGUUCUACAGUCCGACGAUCUCAAGUCCUGUGCUACACAUCGUAUGUACCGAAUCGGUUUGGUUUUUUUGGUGGAAAGUAUUAUGUUACGCCGUUCGGAUCUGCACUUCCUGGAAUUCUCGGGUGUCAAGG | -0.235 |
| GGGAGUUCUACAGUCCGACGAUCAGUCCUGUGCUACACAUCGUAUGUACCGAAUCGGUUUUUGGGUUUUUGGUUUUUGGGAAAGUAUUAUGUUACGCCGUUCGGAUCUGCACUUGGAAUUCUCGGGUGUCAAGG | -0.193 |
| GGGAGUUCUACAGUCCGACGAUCUUCAACAACUAGUACUGCUUCAAAUUAUCCAGAUGUGUUAACAAGGCCUUCUCUUCAUCGGAGCCAUCUGAAUUUUUCCAUGUUGGAAUCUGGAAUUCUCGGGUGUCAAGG | -0.00783 |
| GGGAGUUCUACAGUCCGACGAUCUGGGAGGUGGAUUUUGUUUAUUUUUUUAGCUCAUUUCCAGGGGUGGGAAUUUUUUUUGAAUAUGUGUCAUGAAUAAAGUUGUUUUUGAAAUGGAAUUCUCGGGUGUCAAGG | 1.9 |
| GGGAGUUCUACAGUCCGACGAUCCACAGACAACACGCAACCACACAGACACAGAGGGAAGGGGUUGGGAUGGGGACAGGGUGCACAGCAGGGCGGGGUAGGACCCCAGCCCCUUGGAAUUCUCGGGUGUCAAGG | -0.0581 |
| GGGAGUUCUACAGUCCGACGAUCUGUGGCCGCAGGACGAGUACAUCGUGGAGUACUCACUAGAGUAUGGCUUCCUUCGCCUGUCGCAGGCCACCCGCCAGCGCCUGAGCAUCCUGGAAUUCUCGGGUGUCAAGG | -0.247 |
| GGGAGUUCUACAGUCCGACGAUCUGGGAGGUGGAUUUUGUUUAUUUUUUUAGCUCAUUUCCAGGGGUGGGAAUUUUUUUUUAAUAUGUGUCAUCAAUAAAGUUGUUUUUGAAAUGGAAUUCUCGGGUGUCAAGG | 1.59 |
| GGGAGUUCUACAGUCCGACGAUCUCCUGUGCUACACAUCGUAUGUACCGAAUCGGGGUGGGGUUUUUUUGGGGUUUUUGGGGAAAGUAUUAUGUUACGCCGUUCGGAUCUGCAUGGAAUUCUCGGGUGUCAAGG | 0.709 |
| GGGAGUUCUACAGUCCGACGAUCGUCCUGUGCUACACAUCGUAUGUACCGAAUCGGGUUUUUGGGUUUUUUUGGGAAAGGGAAAGUAUUAUGUUACGCCGUUCGGAUCUGCACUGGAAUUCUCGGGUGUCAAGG | 0.118 |
| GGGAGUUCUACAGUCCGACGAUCAAGUCCUGUGCUACACAUCGUAUGUACCGAAUCGGGAGGGUUUUUUUGGGAAAGGGAAAGUAUUAUGUUACGCCGUUCGGAUCUGCACUUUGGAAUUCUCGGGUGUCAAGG | 0.712 |
| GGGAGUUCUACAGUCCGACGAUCCUGUGCUACACAUCGUAUGUACCGAAUCGUGUGUGUGUGUGUGUGUGUGUGUGUGUGUGUGUAAAGUAUUAUGUUACGCCGUUCGGAUCUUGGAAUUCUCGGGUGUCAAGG | 0.19 |
| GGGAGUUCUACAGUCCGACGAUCCCUGUGCUACACAUCGUAUGUACCGAAUCGGGGUGGGGAAAAAAAGGGGUUUUUUUGGGGAAAGUAUUAUGUUACGCCGUUCGGAUCUGCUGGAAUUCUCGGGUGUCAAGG | 0.542 |
| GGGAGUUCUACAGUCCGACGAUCUGGGAGGCGGAUUUUGUUUAUUUUUUUAGCUCAUUUCCAGGGGUGGGAAUUUUUUUUUAAUAUGUGUCAUGAAUAAAGUUGUUUUUGAAAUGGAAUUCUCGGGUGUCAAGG | 2.25 |

Some of these lines once more (block 2):
| Variant | binding fitness [natural log] |
| --- | --- |
| L38A | -0.759 |
| E54R | -0.161 |
| T37E | 0.0272 |
| K34A | -0.212 |
| A57S | -0.249 |
| K39C | -0.649 |
| A57V | -0.0564 |
| Q41L | -0.219 |
| A40W | -0.337 |
| A49R | 0.134 |
